Measurements collected from several papers.
Compare with care: the assays were run in different laboratories. Values joined by “and” are separate records of one study, mostly repeats; a detail may differ. Numbers after ± are the reported error.
BCHE: Cholinesterase (BCHE, Homo sapiens, UniProt P06276)
Chain of UniProt P06276 (whole entry, looked up): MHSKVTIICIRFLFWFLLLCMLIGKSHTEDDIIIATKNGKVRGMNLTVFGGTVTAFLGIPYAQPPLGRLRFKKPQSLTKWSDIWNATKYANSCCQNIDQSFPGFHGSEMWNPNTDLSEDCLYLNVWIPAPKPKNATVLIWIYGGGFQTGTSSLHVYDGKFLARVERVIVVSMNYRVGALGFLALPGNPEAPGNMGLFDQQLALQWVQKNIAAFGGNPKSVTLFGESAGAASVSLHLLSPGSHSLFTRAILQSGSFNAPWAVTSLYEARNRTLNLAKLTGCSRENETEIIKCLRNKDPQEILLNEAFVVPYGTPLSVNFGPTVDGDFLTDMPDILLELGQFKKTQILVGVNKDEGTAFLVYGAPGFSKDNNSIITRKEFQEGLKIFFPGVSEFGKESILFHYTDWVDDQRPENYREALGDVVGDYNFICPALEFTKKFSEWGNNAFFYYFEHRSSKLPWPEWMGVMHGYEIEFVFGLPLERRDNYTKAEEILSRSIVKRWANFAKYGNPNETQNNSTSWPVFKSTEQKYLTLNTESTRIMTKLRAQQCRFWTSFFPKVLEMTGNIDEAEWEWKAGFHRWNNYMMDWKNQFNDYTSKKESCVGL
Chain of UniProt O95372 (whole entry, looked up): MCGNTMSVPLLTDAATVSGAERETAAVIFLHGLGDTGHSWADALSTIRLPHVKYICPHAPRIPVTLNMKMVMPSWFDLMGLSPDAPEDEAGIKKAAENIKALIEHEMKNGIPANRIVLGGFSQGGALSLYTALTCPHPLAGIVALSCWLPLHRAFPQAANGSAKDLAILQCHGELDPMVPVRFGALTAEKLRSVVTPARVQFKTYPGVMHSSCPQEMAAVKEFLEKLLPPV
Chain of UniProt P49146 (whole entry, looked up): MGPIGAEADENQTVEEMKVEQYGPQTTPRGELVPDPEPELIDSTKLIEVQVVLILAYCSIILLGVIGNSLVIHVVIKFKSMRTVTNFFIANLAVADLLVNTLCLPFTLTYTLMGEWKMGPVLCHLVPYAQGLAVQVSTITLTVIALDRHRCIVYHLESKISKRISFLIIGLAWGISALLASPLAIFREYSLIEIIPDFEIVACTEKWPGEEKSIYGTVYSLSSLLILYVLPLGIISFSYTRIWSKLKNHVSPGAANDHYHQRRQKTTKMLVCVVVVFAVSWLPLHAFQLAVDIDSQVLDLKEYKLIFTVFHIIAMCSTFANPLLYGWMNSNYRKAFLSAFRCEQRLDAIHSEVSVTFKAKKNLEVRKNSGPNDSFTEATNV
Chain of UniProt P14416 (whole entry, looked up): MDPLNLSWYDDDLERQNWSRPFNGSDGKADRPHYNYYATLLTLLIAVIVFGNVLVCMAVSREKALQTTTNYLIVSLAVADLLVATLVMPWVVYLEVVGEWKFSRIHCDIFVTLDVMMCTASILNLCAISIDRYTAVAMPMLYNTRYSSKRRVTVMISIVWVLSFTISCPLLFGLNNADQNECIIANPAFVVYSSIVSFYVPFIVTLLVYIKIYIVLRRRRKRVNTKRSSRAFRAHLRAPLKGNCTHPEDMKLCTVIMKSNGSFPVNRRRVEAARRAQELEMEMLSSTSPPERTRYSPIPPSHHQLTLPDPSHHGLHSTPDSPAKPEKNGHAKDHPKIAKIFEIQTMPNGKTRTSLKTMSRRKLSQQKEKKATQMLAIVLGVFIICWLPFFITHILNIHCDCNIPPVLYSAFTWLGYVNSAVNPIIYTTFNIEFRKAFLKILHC
Chain of UniProt P22607 (whole entry, looked up): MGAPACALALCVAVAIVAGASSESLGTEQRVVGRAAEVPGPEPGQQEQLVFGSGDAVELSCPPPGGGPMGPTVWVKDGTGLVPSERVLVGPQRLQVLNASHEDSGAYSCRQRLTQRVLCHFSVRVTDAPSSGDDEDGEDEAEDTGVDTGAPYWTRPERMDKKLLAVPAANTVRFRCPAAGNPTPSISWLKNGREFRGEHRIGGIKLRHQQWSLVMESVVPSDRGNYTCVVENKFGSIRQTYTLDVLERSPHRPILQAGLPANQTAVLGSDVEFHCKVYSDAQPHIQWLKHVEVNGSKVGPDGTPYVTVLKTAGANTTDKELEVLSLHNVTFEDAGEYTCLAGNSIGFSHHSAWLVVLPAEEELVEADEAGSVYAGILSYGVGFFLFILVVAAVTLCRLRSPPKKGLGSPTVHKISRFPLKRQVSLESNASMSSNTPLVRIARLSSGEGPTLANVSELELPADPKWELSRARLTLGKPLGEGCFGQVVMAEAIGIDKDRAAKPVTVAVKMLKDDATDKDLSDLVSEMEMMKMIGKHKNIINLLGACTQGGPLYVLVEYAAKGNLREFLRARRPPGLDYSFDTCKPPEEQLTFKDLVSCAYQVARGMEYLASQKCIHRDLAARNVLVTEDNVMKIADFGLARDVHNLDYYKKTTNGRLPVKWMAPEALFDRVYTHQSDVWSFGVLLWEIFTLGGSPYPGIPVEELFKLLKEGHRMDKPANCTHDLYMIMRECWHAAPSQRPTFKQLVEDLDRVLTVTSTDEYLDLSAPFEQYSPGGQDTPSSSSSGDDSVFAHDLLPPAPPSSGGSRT
Chain of UniProt P35414 (whole entry, looked up): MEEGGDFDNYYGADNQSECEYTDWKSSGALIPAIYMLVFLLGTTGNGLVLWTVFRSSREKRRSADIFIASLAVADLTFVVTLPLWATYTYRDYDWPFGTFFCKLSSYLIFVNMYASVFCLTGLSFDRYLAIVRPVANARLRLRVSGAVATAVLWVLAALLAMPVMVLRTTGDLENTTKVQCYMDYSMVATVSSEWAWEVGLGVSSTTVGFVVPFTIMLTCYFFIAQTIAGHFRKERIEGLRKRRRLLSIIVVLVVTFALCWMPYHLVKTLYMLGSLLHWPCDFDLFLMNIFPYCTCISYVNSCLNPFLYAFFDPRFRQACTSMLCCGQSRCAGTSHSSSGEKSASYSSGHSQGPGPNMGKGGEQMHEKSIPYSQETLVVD
Chain of UniProt P35408 (whole entry, looked up): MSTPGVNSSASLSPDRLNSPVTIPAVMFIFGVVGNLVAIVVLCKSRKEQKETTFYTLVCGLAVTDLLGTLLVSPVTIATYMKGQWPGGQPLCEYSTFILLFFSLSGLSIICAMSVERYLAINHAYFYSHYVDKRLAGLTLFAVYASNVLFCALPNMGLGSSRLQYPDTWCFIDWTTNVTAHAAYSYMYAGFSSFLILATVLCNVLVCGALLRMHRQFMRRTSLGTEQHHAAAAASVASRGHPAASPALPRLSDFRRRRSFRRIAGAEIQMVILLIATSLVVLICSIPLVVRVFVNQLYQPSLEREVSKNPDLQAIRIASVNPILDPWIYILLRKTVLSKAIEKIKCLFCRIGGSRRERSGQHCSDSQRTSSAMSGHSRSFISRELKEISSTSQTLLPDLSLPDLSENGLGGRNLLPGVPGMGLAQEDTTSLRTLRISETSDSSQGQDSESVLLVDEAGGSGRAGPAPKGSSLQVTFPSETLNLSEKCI
Chain of UniProt P46089 (whole entry, looked up): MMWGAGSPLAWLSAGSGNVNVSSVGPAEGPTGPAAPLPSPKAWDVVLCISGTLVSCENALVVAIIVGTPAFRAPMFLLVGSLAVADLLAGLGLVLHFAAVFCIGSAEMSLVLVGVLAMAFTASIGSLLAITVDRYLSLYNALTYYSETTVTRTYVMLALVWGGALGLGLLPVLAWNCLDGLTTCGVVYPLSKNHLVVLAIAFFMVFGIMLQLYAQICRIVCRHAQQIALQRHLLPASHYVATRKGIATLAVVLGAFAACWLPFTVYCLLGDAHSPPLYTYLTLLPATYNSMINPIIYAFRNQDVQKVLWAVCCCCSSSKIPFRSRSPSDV

| SMILES | tested on | test | test system | conditions | how to read | measurement | value |
| --- | --- | --- | --- | --- | --- | --- | --- |
| Cc1c(C(=O)NN2CCCCC2)nn(-c2ccc(Cl)cc2Cl)c1-c1ccc(Cl)cc1 | TC-71 | inverse agonist | membranes | concentration not given | – | reduction of basal binding | 6.05 ± 2.3% |
| CN1CCN(c2cc(-c3ccncc3)c(-c3ccc4ccccc4c3)nn2)CC1 | NPY2R (Homo sapiens, UniProt P49146) | antagonist, FLIPR | – | 10 µM | – | inhibition | -1.6% |
| CC[C@H](C)[C@H](NC(=O)CNC(=O)[C@@H](N)CCCCN)C(=O)N[C@@H](CC(C)C)C(=O)N[C@@H](CCCCN)C(=O)N[C@@H](CCCNC(=N)N)C(=O)N[C@@H](CCC(=O)O)C(=O)N[C@@H](CCCCN)C(=O)N[C@@H](CCCNC(=N)N)C(=O)N[C@@H](CC(C)C)C(=O)N[C@@H](CCCNC(=N)N)C(=O)N[C@@H](CCCNC(=N)N)C(=O)N[C@@H](CCCCN)C(=O)N[C@@H](CC(N)=O)C(=O)N[C@H](C(=O)N[C@@H](Cc1c[nH]cn1)C(=O)N[C@@H](Cc1c[nH]c2ccccc12)C(=O)N1CCC[C@H]1C(=O)N[C@@H](CCC(=O)O)C(=O)N[C@@H](CCC(=O)O)C(=O)NCC(=O)N[C@@H](CCCCN)C(=O)N[C@@H](CC(C)C)C(=O)N[C@@H](CCCNC(=N)N)C(=O)N[C@@H](CCC(=O)O)C(=O)N[C@@H](Cc1ccccc1)C(=O)N[C@@H](Cc1ccccc1)C(=O)N[C@@H](Cc1ccccc1)C(=O)N[C@@H](Cc1ccccc1)C(=O)N[C@@H](CCC(=O)O)C(=O)N[C@@H](CC(C)C)C(=O)N[C@@H](CC(=O)O)C(=O)N[C@@H](CCC(=O)O)C(=O)N[C@@H](C)C(=O)N[C@@H](CCC(=O)O)C(=O)N[C@@H](CCCNC(=N)N)C(=O)N[C@H](C(=O)N[C@@H](CC(N)=O)C(=O)N[C@H](C(=O)O)C(C)C)C(C)C)C(C)C | HeLa and HEK-293T cells | phosphatase bead binding, competitive inhibitor, PIB pulldown iBAQ LC-MS/MS, measured: PPP4R4 | – | concentration not given | baseline: untreated control | log2 fold change | -0.01 |
| COc1cc(O)ccc1OCCNCC(O)COc1cccc2[nH]c3ccccc3c12 (stereo not drawn) | BCHE | inhibitor | – | – | – | efficacy | -100 ± 2.04% |
| O=C(Nc1cnccc1Cl)N1CCN(Cc2ccc3c(c2)OC(F)(F)O3)CC1 | Abhydrolase domain-containing protein 11 (Rattus norvegicus, UniProt D3ZXK4) | probe labelling, inhibitor, competitive ABPP with azido-FP probe, measured: Abhd11 | rat brain soluble fraction | 10 µM | – | inhibition | 2.2% |
| CC(C)C[C@H](NC(=O)[C@H](CCC(N)=O)NC(=O)[C@H](CO)NC(=O)[C@H](CO)NC(=O)[C@H](CCCNC(=N)N)NC(=O)[C@H](CCCNC(=N)N)NC(=O)[C@H](CCCNC(=N)N)NC(=O)[C@H](CC(C)C)NC(=O)[C@H](Cc1c[nH]cn1)NC(=O)[C@@H](NC(=O)[C@H](CCCCN)NC(=O)[C@H](CCCNC(=N)N)NC(=O)[C@H](CCCNC(=N)N)NC(=O)[C@H](CCCNC(=N)N)NC(=O)[C@H](CCC(N)=O)NC(=O)[C@H](CCCNC(=N)N)NC(=O)[C@H](CCCNC(=N)N)NC(=O)[C@H](CCCCN)NC(=O)[C@H](CCCCN)NC(=O)[C@H](CCCNC(=N)N)NC(=O)CNC(=O)[C@@H](N)Cc1ccc(O)cc1)[C@@H](C)O)C(=O)N[C@@H](CCCCN)C(N)=O | rat CA1 pyramidal neurons | GABAA receptor-mediated mIPSCs | – | concentration not given | – | mIPSC amplitude | increased |
| CCOC(=O)C(=O)c1csc(NC=O)n1 | BCHE | – | – | concentration not given, Triton | – | efficacy | -87.1 ± 6.19% |
| COC(=O)c1c(-c2cc(OC)c(OC)c(OC)c2)c2ccc(OCc3ccccn3)cc2c(=O)n1-c1ccc(N)cc1 | Plasmodium falciparum | – | D10 | – | – | IC50 | 6.31 µM |
| CCCN(CCc1ccsc1)C1CCc2c(O)cccc2C1.Cl (stereo not drawn) | BCHE | – | – | concentration not given, Triton | – | efficacy | -73.4 ± 5.86% |
| CN(C(=O)n1cnc(-c2ccc[n+]([O-])c2)c1)C1CCCCC1 | Apelin receptor (APLNR, Homo sapiens, UniProt P35414) | radioligand binding | – | 10 µM | – | inhibition | 16% |
| CN(C)CCCC1(c2ccc(F)cc2)OCc2cc(C#N)ccc21 (stereo not drawn) | Plasmodium falciparum | – | W2 | – | – | IC50 | 2 µM |
| Cl.Nc1c2c(nc3c1CCC3)CCCC2.O | BCHE | – | – | concentration not given, Triton | – | efficacy | -102 ± 9.66% |
| Oc1ccc2c3c1O[C@H]1[C@@H](O)CC[C@@]4(O)[C@@H](C2)N(CC2CCC2)CC[C@]314 | GPR3 (Homo sapiens, UniProt P46089) | β-arrestin recruitment, TANGO luminescence | – | concentration not given | baseline: basal luminescence | log2 fold change | -0.114 |
| CC[C@H]1CN2CC[C@H]1C[C@H]2[C@H](O)c1ccnc2ccc(OC)cc12 | BCHE | inhibitor, fluorescence | – | – | – | efficacy | -94.8 ± 10.8% |
| COC1=CC(=O)c2c(O)c3c(c(O)c2C1=O)O[C@]1(Oc2c(cc4cc(C)oc(=O)c4c2O)[C@@H](O)[C@@H]1O)[C@@H]3O | Staphylococcus aureus | RNA-Seq, measured: hrtA | MRSA ATCC 433000 | MIC, 12 h | baseline: untreated | log2 fold change | -2.76 |
| COc1ccc(N2C(=O)N(c3c(C)cccc3Cl)Cc3cnc(Nc4ccc(C5CCN(C)CC5)cc4OC)nc32)nc1 | FGFR3 (Homo sapiens, UniProt P22607) | kinase activity | – | 0.5 µM | – | inhibition | 30% |
| O=C(Nc1cccnn1)N1CCC(=Cc2cccc(Oc3ccc(C(F)(F)F)cn3)c2)CC1 | PTGER4 (Homo sapiens, UniProt P35408) | binding, measured: EP4 | – | 10 µM, human, together with: [3H]prostaglandin E2 | – | inhibition | 52% |
| O=C(c1ccc(Cl)cc1)N1CCN2C(=O)N(OC(=O)N3CCOc4ccccc43)C(=O)C2C1 (stereo not drawn) | Acyl-protein thioesterase 2 (Homo sapiens, UniProt O95372) | MS-based ABPP | SW-620 conditioned medium | 10 µM, 1 h, 37 °C | baseline: compound over DMSO, lower = more inhibition | peptide ratio | 1 and 1.13 |
| C[C@H]1CN(c2n[nH]c3nc(N[C@H]4CC[C@H](NS(=O)(=O)CCC(F)(F)F)CC4)ncc23)CCO1 | Putative ribosomal protein uL10-like (RPLP0P6, Homo sapiens, UniProt Q8NHW5) | competitor, Kinobeads competition, measured: RPLP0-like | human cell extract | 0.16 µM | baseline: vehicle | relative abundance | 1.05 |
| O=c1nc(-c2ccccn2)sc2ccccc12 | BCHE | – | – | concentration not given, Triton | – | efficacy | -98.1 ± 6.19% |
| CN[C@]1(c2ccccc2Cl)CCCCC1=O | DRD2 (Homo sapiens, UniProt P14416) | radioligand binding, antagonist, radioligand displacement | – | 30 µM, long isoform | – | inhibition | 5% |

For quick reference, copied from above:
| SMILES | tested on | test | test system | conditions | how to read | measurement | value |
| --- | --- | --- | --- | --- | --- | --- | --- |
| O=C(Nc1cccnn1)N1CCC(=Cc2cccc(Oc3ccc(C(F)(F)F)cn3)c2)CC1 | PTGER4 (Homo sapiens, UniProt P35408) | binding, measured: EP4 | – | 10 µM, human, together with: [3H]prostaglandin E2 | – | inhibition | 52% |
